Assay results pooled from the literature.
Each numbered part is a random draw from the data of one study; scales do not carry over between parts. Substitutions count along the parent as printed.

Study 1
Target: ATF5, bZIP domain (human)
Technique: DHFR protein complementation
Medium: yeast
Setting: single substitutions, most at no-binding floor
Baseline: wild-type JUN-FOS pair
Direction: higher = stronger binding
Endpoint: binding fitness
Starting sequence: JUN, bZIP domain (human); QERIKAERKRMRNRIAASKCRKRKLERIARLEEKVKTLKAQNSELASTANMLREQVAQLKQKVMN; partner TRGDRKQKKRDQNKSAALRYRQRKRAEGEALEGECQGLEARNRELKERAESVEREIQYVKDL
L52T: -1.54 natural log
A40F: -1.53 natural log
S47V: -1.4 natural log
K34N: -1.59 natural log
N42L: -1.49 natural log
S47P: -1.44 natural log
E32M: -1.46 natural log
E44I: -1.43 natural log
K39I: -1.33 natural log
A57S: -1.57 natural log
K39T: -1.41 natural log
A46E: -1.44 natural log
A57W: -1.39 natural log
S47T: -1.35 natural log
V35L: -1.51 natural log
L31E: -1.48 natural log
E33P: -1.48 natural log
V35G: -1.5 natural log

Study 2
Target: TAR DNA-binding protein 43, full length, His tag (TARDBP, Homo sapiens, UniProt Q13148, residues 1-414)
Technique: RNA Bind-n-Seq
Form: RNA
Medium: in vitro
Tested at: 20 nM
Setting: 6-mer, flanks averaged, single round
Added: 150 mM LiCl
Baseline: input library
Direction: higher = stronger binding
Endpoint: 6-mer enrichment (R)
UCCCAG: 0.932
CAGUCC: 0.862
AGCUUU: 0.93
GUCCUU: 1.03
UGAGUG: 1.68
UAUGUU: 1.37
GCUUGU: 1.12
AUUAUC: 0.906
UCUGUA: 0.978
CACCAG: 0.896
AUUCUG: 0.92
CUACAU: 0.859
CGCGAA: 0.847
CCAGUA: 0.909
CAAAAC: 0.803
AGCGCA: 0.959
UGUACC: 0.955

Study 3
Target: RNA binding protein fox-1 homolog 2, RRM domain, GST-SBP tag (RBFOX2, Homo sapiens, UniProt O43251-10, residues 100-194)
Technique: RNA Bind-n-Seq
Form: RNA
Medium: in vitro
Tested at: 365 nM
Setting: natural RNA segment, single round, ends assumed
Baseline: no-protein control
Direction: higher = stronger binding
Endpoint: RBNS enrichment (R)
Constant ends, left off below: GGGAGUUCUACAGUCCGACGAUC … UGGAAUUCUCGGGUGCCAA
Construct (chain): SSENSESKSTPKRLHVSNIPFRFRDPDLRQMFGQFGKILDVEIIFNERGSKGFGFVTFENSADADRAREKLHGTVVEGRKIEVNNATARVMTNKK
CACUUCUGAGGAGACUGUACAGCCCGUUUUGUGCCUGUGUGUGUGUUCAUGGCCUGUAAGUGUACCCCAAGCACUGUGGGCGGGAGCUACCACUUCUUUGAGAACCUCUG: 0.442
AAAUGGUUCAAUGAAAAACUAUAGCUAAAAUAUGUAAACCUUUCUAGGUAAACCGCUUGCCUUCAUCUUGAGUCGGAAUAUAUUUAAAUAAAUUGUGUUAUCUCUUGCCA: 1.19
UGAACAGAAGGGAUUUGAGAAGAGGAAAGGAAGAAGAAAUGAAUGGCUCAGGCCUUGGACAGUCCAACAUUAAAGUCAACAUGCUGAUCUCUCCAUUCCUGGUUCAGGGU: 0.583
GGCAGCUUUCCAAAGGGCCUAAAACACCAGGACUGCCUCUGUGAAAGGCCCGAGUGGCUUUGAUGCAGUUGGUAACCACUUGAGAGCAGAGAUGUCUUAACUUGUCAGGA: 0.249
UUGAGUAAACCUUUUUAGUUUUUACCUCAGCAGAGUGUUAGUAUGGCUGCUUUGCAGUCCCUGCUAAAGGGACCACCAGAGGGAGGGACAGUUCGUACGGCCCUCUCAGC: 0.227
AUUUGGCACCUUUUCCUCACUUGUAGCUUCCCUAUGAUAGCUGAGCUAACCCUAAGGUUUCCUAGCUGUGGGAAGAGGUGAGUUCUUUGAGACCUCCGGCCUUAGGAAGU: 0.215
UGCAAGCAGCACUUCAGAAGAAACCAGCAUCAAAGCAGCCUUCCCUGACCCCACCUAUCGUCUUCUGCUAAGGGACAGUACAGAAGCUGCUGUCUGGGCUGUAAAGUCUG: 0.523
GGGCUGGGCAGGAGGGUGGGGUCUGCUGUGGGUUCAGAGGACUCCACCUCCUGGCUGGUUUACCUGCUGCUGCCCAUUUUCUCUGGGUACUGCUGGCCAGAGGACUUUAG: 0.34
CGGCUCCCAUCCAGCCCUCUCAGCGUGGGGCUGUGGCUGGUCCUCACUAUUCCCCAGUCUCCCGCUGUGGGGCAGGAACAGGAAGUGACGGGAACCUUGAGGAGGAAACG: 0.339
GCAUUAGUUUAAAAUGUCGUUUUUGUUACAGCACAAAGGUUUUGUUUACCCGUCAAGUAUUAGCAGCAGUAUUUCUCCCACACGGAGAAGCCUGUGCACAAGUAGCAUGG: 1.97
GUAUAUAAAAGGCUACAGUUUAAUAUCUGUAUUUUUAUAAAAGUAUGAUGAAGGGUUUGGGGUGUUUUUAUUUGUAGCAGAGGUAAGAAUAUGUAUUCAUAUAAUCUGCC: 0.519
CUGAAGGCAUGAAAAUCAAGUGUUCCCUGGAGUUUUGAAGCGAAGAUUCAGGGACAAGUUGAAAGGCACUGAAACUGUGUUGAAGCCAGAUGAGUAAUUAUAAGUAACUG: 0.367

Study 4
Target: Histone acetyltransferase KAT6A, winged helix 2, GST fusion (KAT6A, Homo sapiens, UniProt Q92794, residues 85-181)
Technique: protein binding microarray
Form: double-stranded DNA, one strand shown
Medium: in vitro
Tested at: not given
Setting: 8-mer, flanks averaged, mean of 2 arrays, mostly near background
Baseline: not given
Direction: higher = stronger binding
Endpoint: E-score
Target sequence (chain): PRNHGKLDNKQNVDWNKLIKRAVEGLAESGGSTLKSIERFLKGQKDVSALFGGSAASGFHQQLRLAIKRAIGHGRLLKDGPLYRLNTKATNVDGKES
TCGTAACA: -0.0858
GGCCTTAC: -0.223
TATACCCA: -0.141
GTACGGGA: -0.077
TAGGCCGA: -0.116
CAACCGCG: 0.217
CGGCTTAG: 0.116
CAGCGACG: -0.0147
TCCATTCA: -0.0269
CGTTTAGA: -0.047
CAAGCTGG: -0.0592
CAATGTGA: -0.0428
AGGAATAG: -0.134
GGTCGCAA: 0.12
GTGGACAC: 0.0747
ATGTTAGG: -0.179
GTTCGCGA: 0.188
ACATTGCA: -0.0828
AACTGCAG: 0.0495
ACATTAGA: -0.121
GGTCGATA: -0.144
GCCTTAAA: 0.125
AAGACCAA: 0.00779
AATTCACT: 0.0751
AGGAGTGC: -0.0151

Study 5
Target: Prothrombin, mature alpha-thrombin (F2, Homo sapiens, UniProt P00734)
Technique: aptamer microarray, sandwich
Form: DNA with 2'F-ANA
Medium: in vitro
Tested at: 200 nM
Setting: whole 15-mer aptamer, many near background
Added: Cy3 exosite-II aptamer, 400 nM
Direction: higher = stronger binding
Endpoint: mean fluorescence intensity
Strand: GGTTGGTGTGGTTGG
2'F-ANA at 2 3 4 5 7 9 10 11 13 14 15: 62.5 a.u.
2'F-ANA at 1 2 3 5 7 8 11 12 13: 79.8 a.u.
2'F-ANA at 1 5 6 7 8 9 12 13: 78.7 a.u.
2'F-ANA at 7 8 9 12 15: 865 a.u.
2'F-ANA at 3 4 6 8 12 13 14 15: 344 a.u.
2'F-ANA at 1 3 5 6 9 13 15: 52.4 a.u.
2'F-ANA at 3 4 7 8 10 15: 322 a.u.
2'F-ANA at 1 2 3 4 8 10 11 12 13 14 15: 51.4 a.u.
2'F-ANA at 2 3 7 9 12 15: 1010 a.u.
2'F-ANA at 1 2 3 8 11 13 14: 81.8 a.u.
2'F-ANA at 1 3 4 5 9 10 12 13 14 15: 46.4 a.u.
2'F-ANA at 1 2 4 5 6 7 8 9 13 15: 70.7 a.u.
2'F-ANA at 3 4 7 8 9 12 13: 805 a.u.
2'F-ANA at 1 3 7 9: 314 a.u.
2'F-ANA at 2 3 4 5 8 9 11 13 15: 61.7 a.u.
2'F-ANA at 3 4 6 8 9 10 12 13: 219 a.u.
2'F-ANA at 1 3 4 6 7 8 10 15: 66 a.u.
2'F-ANA at 3 4 6 7 9 11 14: 203 a.u.
2'F-ANA at 1 3 4 5 6 8 9 10 11 12 15: 51.9 a.u.
2'F-ANA at 2 3 4 6 8 9 11 14 15: 205 a.u.
2'F-ANA at 1 4 7 10 13 14 15: 72.3 a.u.
2'F-ANA at 2 4 5 10 13 14: 46.3 a.u.
2'F-ANA at 1 3 4 6 9 11 13: 110 a.u.
2'F-ANA at 9 10 15: 175 a.u.
2'F-ANA at 1 4 6 8 9 10 11 12 14: 56.3 a.u.
